Experimental data of several laboratories.
Each line is one published result; not all experiments were run side by side. “And” joins repeats or separate records; there may be more than shown. ± gives the spread as reported.
UCHL1: Ubiquitin carboxyl-terminal hydrolase isozyme L1 (UCHL1, Homo sapiens, UniProt P09936)
UniProt P09936, sequence (whole entry, looked up): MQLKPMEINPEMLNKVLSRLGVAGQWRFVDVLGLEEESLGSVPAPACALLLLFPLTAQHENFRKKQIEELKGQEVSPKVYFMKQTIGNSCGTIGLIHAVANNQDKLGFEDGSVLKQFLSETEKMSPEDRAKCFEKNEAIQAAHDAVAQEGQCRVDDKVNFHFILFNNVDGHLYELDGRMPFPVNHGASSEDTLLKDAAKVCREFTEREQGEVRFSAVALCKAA

C=CC(=O)c1cccnc1Nc1cc(C(F)(F)F)ccc1C — TEAD reporter activity (MCF7; firefly luciferase reporter; 50 µM, 6 h; reference: vehicle): 51.8 ± 1.8%
CC(=O)c1nn(-c2ccc(Cl)cc2)/c(=N/N=C(\C)c2ccc(NC(=O)c3ccccc3)cc2)s1 — viability (MCF7; 10 µM): 4.84%
CNC(=S)NN=C(C)c1c(O)c2ccccc2oc1=O — selectivity index (MCF7; cell growth, MTT; reference: IC50 BJ-1 over MCF7): > 7.35
CCCCN1CCN(c2ccc3[nH]c(-c4ccc5[nH]c(-c6cc(OC)c(OC)c(OC)c6)nc5c4)nc3c2)CC1 — growth percent (MCF7; SRB; 10 µM, 48 h): 19.9%
O=[N+]([O-])c1cc(I)c(O)c(C=NNc2ccccc2)c1 — IL-6 level (MCF7; ELISA; culture supernatant; IC50, together with: LPS; reference: LPS alone): 34%
CC(=O)Nc1ccc(/C(C)=N/N=c2\sc(C(C)=O)nn2-c2ccc(C)cc2)cc1 — cytotoxicity (MCF7; MTT; 10 µM): 94.6%
C=CC(=O)c1ccccc1Nc1cc(C(F)(F)F)ccc1OC — TEAD reporter activity (MCF7; firefly luciferase reporter; 50 µM, 6 h; reference: vehicle): 56 ± 4.2%
COc1ccc(C=O)cc1OS(=O)(=O)c1ccc(NC(C)=O)cc1 — labelling (UCHL1; covalent, intact protein LC-MS; 12.5 µM): 13.2%
O=C(O)c1ccccc1Nc1cccc(C(F)(F)F)c1 — TEAD reporter activity (MCF7; firefly luciferase reporter; 25 µM, 6 h; reference: vehicle): 88.9 ± 3.1%
CCn1c(C)csc1=NN=C(C)c1c(O)c2ccccc2oc1=O — selectivity index (MCF7; cell growth, MTT; reference: IC50 BJ-1 over MCF7): > 2.74
CC(=O)c1nn(-c2ccc(Cl)cc2)/c(=N/N=C(\C)c2ccc(NC(=O)c3ccc(Cl)cc3)cc2)s1 — toxicity (MCF7; 5 µM): 50.7%
COc1cccc2c1C(=O)c1c(O)c3c(c(O)c1C2=O)C[C@@](O)(C(=O)CO)C[C@@H]3O[C@H]1C[C@H](N)[C@H](O)[C@H](C)O1 — cells in S phase (MCF7; flow cytometry; 4.29 µM (IC50), 72 h): 24.8%
CCOC(=O)c1nn(-c2cccc(Cl)c2)/c(=N/N=C(\C)c2ccc(NC(=O)c3ccccc3)cc2)s1 — cytotoxicity (MCF7; MTT; 0.312 µM): 93.7%
C=CC(=O)c1cccnc1Nc1cc(C)ccc1OC — TEAD reporter activity (MCF7; firefly luciferase reporter; 50 µM, 6 h; reference: vehicle): 70.8 ± 6.5%
OCc1ccc(Nc2ccc3c(Nc4cccc(C(F)(F)F)c4)ncnc3c2)cc1 — live cells (MCF7; annexin V-PE/DAPI; concentration not given, 24 h): 62.2%
Cl.O=C(CCl)NC1(c2nc(-c3ccccc3)c[nH]2)CCCC1 — labelling (UCHL1; covalent, intact protein LC-MS; 12.5 µM): 27.5%
CC(=O)c1nn(-c2ccccc2Cl)/c(=N/N=C(\C)c2ccc(NC(=O)c3ccccc3)cc2)s1 — cytotoxicity (MCF7; MTT; 5 µM): 93.8%
CCC(=O)N1CCC(COCC(=O)N2CCN(c3nc(-c4cnc(N)nc4C(F)F)nc(N4CCOC[C@@H]4C)n3)CC2)CC1 — IC50 (MCF7; western blot, item: phospho-PKB/Akt Ser473; 2 h): 38.1 nM
O=C(Nc1nnc2n3c(nc(-c4ccc(Cl)cc4)c1-2)SCC3=O)c1ccccc1 — cell growth (MCF7; SRB; 10 µM, NCI60 single-dose screen; reference: untreated): 76.6%
CCOC(=O)c1nn(-c2cccc(Cl)c2)/c(=N/N=C(\C)c2ccc(NC(=O)c3ccc(Cl)cc3)cc2)s1 — cytotoxicity (MCF7; MTT; 0.625 µM): 96.1%
Cc1cc(=O)[nH]c(=O)n1Cc1cn(-c2c3ccccc3nc3ccccc23)nn1 — growth percentage (MCF7; NCI60 single-dose screen; 10 µM): 2.5%
C[C@@H]1CC[C@@H]([C@](O)(CNCc2ccccc2)COCc2ccccc2)[C@H](OCc2ccccc2)C1 — IC50 (MCF7; cell growth, inhibitor, MTT; 72 h): 1990 nM
C#C[C@@]1(O)[C@@H](CO)O[C@@H](n2cc(Br)c3c(N)ncnc32)[C@@H]1O — TGI (MCF7; SRB; NCI-60 screen): 1.19 µM and 1.81 µM
CC(C)[C@H](NC(=O)c1cc(Cl)ccc1OCCNC(=O)OC(C)(C)C)C(=O)Nc1ccc([N+](=O)[O-])cc1Cl — colony formation (MCF7; 0.1 to 10 µM, 2 weeks): inhibited
